Published values of several laboratories.
Each line is one published result; not all experiments were run side by side. ± gives the spread as reported.
Chain of UniProt P04062 (whole entry, unmodified, looked up): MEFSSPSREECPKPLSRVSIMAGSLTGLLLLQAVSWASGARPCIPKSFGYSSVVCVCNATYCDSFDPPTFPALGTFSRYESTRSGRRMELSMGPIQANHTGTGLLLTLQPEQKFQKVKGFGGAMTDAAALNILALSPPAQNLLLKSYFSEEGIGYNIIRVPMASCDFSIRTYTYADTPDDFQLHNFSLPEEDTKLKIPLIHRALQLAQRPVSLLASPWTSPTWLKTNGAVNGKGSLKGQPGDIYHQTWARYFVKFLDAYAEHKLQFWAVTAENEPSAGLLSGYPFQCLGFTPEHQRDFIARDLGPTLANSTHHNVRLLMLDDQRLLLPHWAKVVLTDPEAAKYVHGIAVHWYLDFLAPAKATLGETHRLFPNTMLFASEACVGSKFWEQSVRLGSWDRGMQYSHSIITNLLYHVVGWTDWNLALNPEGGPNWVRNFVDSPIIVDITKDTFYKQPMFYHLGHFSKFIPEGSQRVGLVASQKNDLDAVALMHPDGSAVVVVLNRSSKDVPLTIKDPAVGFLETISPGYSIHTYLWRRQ

O=C1C2CC3CC1CC(C(=O)N1CCN(c4ccc([N+](=O)[O-])c5ncccc45)CC1)(C3)C2  Cmax (ICR mice male, plasma; oral, 5 mg/kg): 29.7 ng/mL
COc1ccc2nc(NC(=O)c3ccc(C(N)c4ccccc4)cc3)sc2c1 (centres unmarked)  Cmax (CD-1 mice, female, plasma; 10 mg/kg): 600 ng/mL
CC[C@H](C)[C@H](NC(=O)[C@H](CCCNC(=N)N)NC(=O)[C@H](Cc1c[nH]cn1)NC(=O)[C@@H](N)[C@@H](C)O)C(=O)N[C@@H](CC(C)C)C(=O)N[C@@H](CCCNC(=N)N)C(=O)N[C@@H](CCCNC(=N)N)C(=O)N[C@@H](CC(C)C)C(=O)N[C@@H](Cc1ccccc1)C(=O)N[C@@H](CC(N)=O)C(=O)N[C@@H](CC(C)C)C(=O)N[C@@H](CS)C(N)=O  Cmax (LC-MS/MS; C57BL/6J lean male mice, plasma; ip, 10 mg/kg): 0.015 to 0.02 µM
CNCc1ccc(-c2cc(=O)c3ccc4[nH]c(C(F)(F)F)nc4c3o2)cc1  Cmax (ICR mice, brain; oral, 5 mg/kg): 18.5 ng/g
Nc1nonc1-c1nnc2c(n1)-c1ccccc1C2=O  Cmax (ICR mice, plasma; intraperitoneal, 30 mg/kg): 8.3 ± 0.93 µM
CC(=O)c1c(C)c2cnc(Nc3ccc(N4CCNCC4)cn3)nc2n(C2CCCC2)c1=O  Cmax (G-Smo medulloblastoma mice (hGFAP-Cre x SmoM2), forebrain; intraperitoneal, 25 mg/kg single, dosed at postnatal day P10): 2840 ng/g
COc1ccc(/C=C/C(=O)N2CC(CCl)c3c2cc(N)c2ccccc32)cc1 (centres unmarked)  Cmax (female NSG mice, plasma; intraperitoneal, 0.3 mg/kg): 108 ng/mL
N#Cc1cccc(-c2ccc(COCCCCCN3C[C@H](O)[C@@H](O)[C@H](O)[C@H]3CO)cc2)c1  IC50 (GBA1 (Homo sapiens, UniProt P04062, R534H); inhibitor, 4MU-β-D-glucopyranoside; added: 4MU-β-D-glucopyranoside): 700 nM
CSc1ccc(CN2CCCC(CNC(=O)c3ccc(F)cc3)C2)cc1 (centres unmarked)  relative translation (Trypanosoma cruzi; reporter mRNA translation, inhibitor, item: capped polyadenylated Renilla luciferase mRNA; cell-free extract; concentration not given; relative to: control RNA): 104%
CCCCCCCCN(Cc1ccc(CNC(=O)OCCOC23CC4CC(C2)CC(C(N)C(=O)N2C(C#N)CC5CC52)(C4)C3)cc1)CC(O)C(O)C(O)C(O)CO (centres unmarked)  Cmax (C57BL/6J mice, female, plasma; intratracheal, 0.5 mg/kg): 0.13 µM
CC(=O)N1c2ccc(-c3ccc(CNC(=O)c4cn5cc(-c6cnc(N)nc6)nc(N6CCOCC6)c5n4)cc3)cc2CC[C@@H]1C  Cmax (female C57BL/6 mice, plasma; intraperitoneal, 45 mg/kg): 44 µM
COC1CN([C@H]2CC[C@H]([C@@]3(C)Oc4c(Cl)cc(C(=O)NCc5c(SC)cc(C)[nH]c5=O)c(C)c4O3)CC2)C1  Cmax (female CB17 SCID mice, KARPAS-422 xenograft, plasma; 25 mg/kg, day 12): 742 ng/mL
CN(C)CCCSc1nc(-c2ccccc2)nc2c1CCC2  relative translation (Trypanosoma cruzi; reporter mRNA translation, inhibitor, item: capped polyadenylated Renilla luciferase mRNA; cell-free extract; concentration not given; relative to: control RNA): 107%
C=C(NC(=O)c1csc(-c2nc3c(cc2O)-c2nc(cs2)C(=O)NC(C(C)O)C(=O)NC(=C(C)OC)c2nc(cs2)C(=O)NC2c4nc(cs4)C(=O)NC(COC(=O)c4c5c6c(cccc6n4O)COC(=O)C(OC4CC(C)(O)C(N(C)C)C(C)O4)C2OC5)c2nc-3cs2)n1)C(N)=O (centres unmarked)  Cmax (ICR mice, Streptococcus pneumoniae ATCC 49169 infected, immunocompromised, blood; intravenous, 32 mg/kg/day once daily): 3750 ng/mL

For quick reference, copied from above:
CC(=O)N1c2ccc(-c3ccc(CNC(=O)c4cn5cc(-c6cnc(N)nc6)nc(N6CCOCC6)c5n4)cc3)cc2CC[C@@H]1C  Cmax (female C57BL/6 mice, plasma; intraperitoneal, 45 mg/kg): 44 µM
COC1CN([C@H]2CC[C@H]([C@@]3(C)Oc4c(Cl)cc(C(=O)NCc5c(SC)cc(C)[nH]c5=O)c(C)c4O3)CC2)C1  Cmax (female CB17 SCID mice, KARPAS-422 xenograft, plasma; 25 mg/kg, day 12): 742 ng/mL
